# Assay results from different studies.
# Parts stem from different laboratories: compare values within a part only. Values joined by “and” are separate records of one study, mostly repeats; a detail may differ. ± marks the error that the study gave.

# Series 1 — organism: SARS-CoV-2 Wuhan spike VSV pseudovirus; observed: pseudovirus entry; concentration: 10 µM
Structure (SMILES),inhibition [%]
O=C(CC1=CCCCC1)N1C[C@@H](CO)[C@H](c2nc(C3CC3)no2)C1,85
COc1ccccc1C1CCCN1C(=O)CCCn1nnnc1CN1CCOCC1 (stereo not drawn),80
CCN(CC)c1ccc2cc(-c3nc(-c4ccccc4)cs3)c(=O)oc2c1,82
CNC(=O)CC1C(=O)NCCN1C(=O)c1cc2ccccc2n1C (stereo not drawn),100
CNC(=O)NC(=O)Cn1ncc(Cl)c(Cl)c1=O,58
OC(CNCC1COc2ccccc2C1)COc1ccc(Cl)cc1Cl (stereo not drawn),100
CCN(CC)CCNC(=O)c1c(C)oc2c1C(=O)c1ccccc1C2=O,100
OC[C@@H]1CN(C2CCSCC2)C[C@H]1c1nc(-c2cccnc2)no1,68
OC(Cc1ccccc1)c1ccc2c(c1)CN(Cc1ccc3ccccc3n1)CCO2 (stereo not drawn),89
CN1CCN(S(=O)(=O)c2ccc(N3Cc4cc5c(cc4C4(CCCC4)C3)OCCO5)nc2)CC1,100
Cc1cc(N2CCCC(CO)C2)nc(C)n1 (stereo not drawn),99
Cc1cc2c(cc1O)NC(=O)CC2c1ccc(Oc2ccccc2)nc1 (stereo not drawn),61
CCN(CCCNC(=O)c1ccc(Nc2ccnc(-c3ccc(F)cc3)n2)cc1)Cc1ccccc1,75
CN(CCc1cn[nH]c1)C(=O)c1coc(COc2cccc(F)c2F)n1,69
O=c1c(Cl)c(Cl)cnn1Cc1ccc(F)cc1Br,65
COCCCN1CCC(NC(=O)c2cc(Cl)c(N)c3c2OCC3)CC1,96
CC(c1cccc(-c2ncc(F)cn2)c1)N(C)C (stereo not drawn),100
CCc1ccc(OCc2ccccc2C(=O)Nc2ccc3nc(C)cc(N)c3c2)cc1,60
CC(Cn1cncn1)NC(=O)c1cc(COc2cccc(F)c2)[nH]n1 (stereo not drawn),66
CCSc1ncnc2c1sc1nc(C(C)C)c3c(c12)CC(C)(C)OC3,75
O=C(NCCSc1ccc([N+](=O)[O-])c2onnc12)Oc1cccc(C(F)(F)F)c1,57
CC(C)C[C@H](NC(=O)[C@H](CCc1ccccc1)NC(=O)CN1CCOCC1)C(=O)N[C@@H](Cc1ccccc1)C(=O)N[C@@H](CC(C)C)C(=O)[C@@]1(C)CO1,82
CCN(c1ccc2sc(C(=O)Nc3cccc(OC)c3)cc2c1)S(C)(=O)=O,53
COc1cccc2c1OCC(C(=O)NCCSc1nnnn1C)C2 (stereo not drawn),99
CCCC(=O)Nc1nc2ccc(NC(=O)C3(c4ccccc4)CCCC3)cc2s1,56

# Single results of other studies
# rep nsp12 RdRp: Replicase polyprotein 1ab, nsp12 RdRp (rep, Severe acute respiratory syndrome coronavirus 2, UniProt P0DTD1)
# rep main protease: Replicase polyprotein 1ab, main protease (rep, Severe acute respiratory syndrome coronavirus 2, UniProt P0DTD1)
# rep nsp14: Replicase polyprotein 1ab, nsp14 (rep, Severe acute respiratory syndrome coronavirus 2, UniProt P0DTD1)
# rep papain-like protease: Replicase polyprotein 1ab, papain-like protease (rep, Severe acute respiratory syndrome coronavirus 2, UniProt P0DTD1)
SMILES,tested on,assay,system,setting,scale,measurement,value
NCC12CC3CC(CC1C3)C2,"Matrix protein 2 (Influenza A virus, UniProt P0DOF5, S31N)",,,"concentration not given, pH 5.5, cell-based",,inhibition,0%
CCc1cc(=O)c2c(OCC(O)CN(CC)CC)c3ccoc3c(OC)c2o1 (stereo not drawn),Mycobacterium tuberculosis,Alamar blue,"22/22, SIRE and linezolid resistant","21 days, 37 °C",,MIC,32 µg/mL
COc1cc(N2CCC(N3CCN(C)CC3)CC2)ccc1Nc1ncc(Cl)c(Nc2ccccc2P(C)(C)=O)n1,rep nsp12 RdRp,"binding, biolayer interferometry",,concentration not given,,BLI response,0 nm
CC[C@H](C)[C@@H]1NC(=O)[C@H](CCC(N)=O)NC(=O)[C@H](CCC(=O)O)NC(=O)[C@H](CCCNC(=N)N)NC(=O)[C@@H]2CCCN2C(=O)[C@H](CCCNC(=N)N)NC(=O)[C@H](CCCNC(=N)N)NC(=O)[C@H](Cc2ccc(O)cc2)NC(=O)CSC[C@@H](C(=O)NCC(N)=O)NC(=O)[C@H](Cc2ccccc2)NC(=O)[C@H](C(C)C)NC(=O)[C@H](Cc2c[nH]c3ccccc23)NC(=O)[C@H](CC(C)C)NC(=O)[C@H](CO)NC(=O)CNC(=O)[C@H]([C@@H](C)CC)NC(=O)[C@H]([C@@H](C)CC)NC1=O,SARS-CoV-2 spike protein Alpha variant,binding,,,,Kd,39 nM
CCCCCCCC/C=C\CCCCCCCC(=O)O[C@H](COC(=O)CCCCCCCCCCCCCCC)COP(=O)(O)OC[C@H](N)C(=O)O,"Nucleoprotein (Severe acute respiratory syndrome coronavirus 2, UniProt P0DTC9)","membrane binding, surface plasmon resonance",SARS-CoV-2,,,Kd,400 ± 20 nM
CCC(CC)COC(=O)[C@H](C)N[P@](=O)(OC[C@H]1O[C@@](C#N)(c2ccc3c(N)ncnn23)[C@H](O)[C@@H]1O)Oc1ccccc1,Severe acute respiratory syndrome coronavirus 2,"viral replication, inhibitor",Vero C1008,,,IC50,1540 nM
CCC1CC(c2ccc(C(=O)O)cc2)=NN1c1ccc(C#N)c(Cl)c1 (stereo not drawn),SARS-CoV-2,viral replication,"Calu-3, B.1.617.2 Delta variant",72 h,,EC50,24100 nM
COc1ccc(-c2cc(=O)c3c(O)cc(O)c(-c4cc(-c5cc(=O)c6c(O)cc(OC)cc6o5)ccc4OC)c3o2)cc1,rep main protease,"enzyme activity, inhibitor",,,,Ki,2960 nM
C=CCn1c(CSc2ccccc2[N+](=O)[O-])n[nH]c1=S,"Replicase polyprotein 1ab, nsp13 R392C (rep, Severe acute respiratory syndrome coronavirus 2, UniProt P0DTD1, R5716C)","enzyme activity, inhibitor",,,,IC50,610 ± 220 nM
O=C(NC1CCN(c2ncnc3[nH]cnc23)CC1)c1cccc(S(=O)(=O)N2CCCC2)c1,rep nsp14,"NSP14 enzyme activity, inhibitor",,0.1953 µM,,inhibition,1.51%
COc1ccc(-c2cc(=O)c3c(O)c(OC)c(O)cc3o2)cc1,rep main protease,"protease activity, inhibitor, FRET",,50 µM,,inhibition,-6.63%
CC1CC(c2cccc(C(=O)O)c2)=NN1c1ccc(C#N)c(Cl)c1 (stereo not drawn),SARS-CoV-2,viral replication,"Calu-3, B.1.617.2 Delta variant",72 h,,EC50,32700 nM
N#C[C@@]1(n2ccc(N)nc2=O)O[C@H](CO)[C@@H](O)[C@H]1O,SARS-CoV-2,viral replication,"Calu-3, Alpha",,,EC90,5400 ± 5000 nM
Cc1ccc(C(=O)Nc2cccc(C(F)(F)F)c2)cc1Nc1nc(-c2cccnc2)nc2c1cnn2C,rep nsp12 RdRp,"binding, biolayer interferometry",,concentration not given,,BLI response,-0.02 nm
CN(C)CCn1c(C(=O)N2CCN(c3ccccc3Cl)CC2)c(C(c2ccc(O)cc2)c2ccc(O)cc2)c2ccccc21,SARS-CoV-2,viral replication,"293T-ACE2, USA-WA1/2020",24 h,,EC50,91 nM
COc1c(O)cc2oc(-c3ccc(O)cc3)cc(=O)c2c1O,rep main protease,"protease activity, inhibitor, FRET",,50 µM,,inhibition,16.8%
O=C(NC1CCN(c2ncnc3[nH]cnc23)CC1)c1cccc(S(=O)(=O)N2CCC2)c1,rep nsp14,enzyme activity,SARS-CoV-2,,,IC50,3740 nM and 5530 nM
CNCC12CC3CC(CC1C3)C2,"Matrix protein 2 (Influenza A virus, UniProt P0DOF5, V27A)",,,"concentration not given, pH 5.5, cell-based",,inhibition,0%
NNC(=O)c1ccncc1,Mycobacterium tuberculosis,Alamar blue,"22/22, SIRE and linezolid resistant","21 days, 37 °C",,MIC,32 µg/mL
Nc1ncc(-c2ccnc(Nc3ccncc3)n2)c(CC2CC2)n1,SARS-CoV-2,,Vero C1008,,,IC50,< 600 nM
CC(C)C(=O)OC[C@H]1O[C@@H](n2ccc(NO)nc2=O)[C@H](O)[C@@H]1O,SARS-CoV-2,,,,relative to: CC50 over EC50,selectivity index,7 to 49
CCC(CC)COC(=O)[C@H](C)N[P@](=O)(OC[C@H]1O[C@@](C#N)(c2ccc3c(N)ncnn23)[C@H](O)[C@@H]1O)Oc1ccccc1,SARS-CoV-2,viral replication,"Vero, Gamma",,,EC90,800 ± 100 nM
NCC[C@H](O)C(=O)N[C@@H]1C[C@H](N)[C@@H](O[C@H]2O[C@H](CN)[C@@H](O)[C@H](O)[C@H]2O)[C@H](O)[C@H]1O[C@H]1O[C@H](CO)[C@@H](O)[C@H](N)[C@H]1O,Mycobacterium tuberculosis,,H37Rv mc2-6206 MmpL3 G253E,,,MIC80,0.85 µM
NC(=O)c1ncn([C@@H]2O[C@H](CO)[C@@H](O)[C@H]2O)c1O,rep papain-like protease,,,"concentration not given, C111S mutant",relative to: positive control,activity,18.7%
CCCCCCC#Cc1cncc(-c2nnc(SCc3cc([N+](=O)[O-])cc([N+](=O)[O-])c3)n2C)c1,Mycobacterium tuberculosis,,H37Rv mc2-6206 MmpL3 L567P,,,MIC80,4.2 µM
CC(C)[C@H](NC(=O)OCc1ccccc1)C(=O)N[C@H](C=O)Cc1ccccc1,rep papain-like protease,,,"concentration not given, C111S mutant",relative to: positive control,activity,21.9%

# A few entries again (single results of other studies):
SMILES,tested on,assay,system,setting,scale,measurement,value
CC[C@H](C)[C@@H]1NC(=O)[C@H](CCC(N)=O)NC(=O)[C@H](CCC(=O)O)NC(=O)[C@H](CCCNC(=N)N)NC(=O)[C@@H]2CCCN2C(=O)[C@H](CCCNC(=N)N)NC(=O)[C@H](CCCNC(=N)N)NC(=O)[C@H](Cc2ccc(O)cc2)NC(=O)CSC[C@@H](C(=O)NCC(N)=O)NC(=O)[C@H](Cc2ccccc2)NC(=O)[C@H](C(C)C)NC(=O)[C@H](Cc2c[nH]c3ccccc23)NC(=O)[C@H](CC(C)C)NC(=O)[C@H](CO)NC(=O)CNC(=O)[C@H]([C@@H](C)CC)NC(=O)[C@H]([C@@H](C)CC)NC1=O,SARS-CoV-2 spike protein Alpha variant,binding,,,,Kd,39 nM
CCCCCCC#Cc1cncc(-c2nnc(SCc3cc([N+](=O)[O-])cc([N+](=O)[O-])c3)n2C)c1,Mycobacterium tuberculosis,,H37Rv mc2-6206 MmpL3 L567P,,,MIC80,4.2 µM
NCC12CC3CC(CC1C3)C2,"Matrix protein 2 (Influenza A virus, UniProt P0DOF5, S31N)",,,"concentration not given, pH 5.5, cell-based",,inhibition,0%
CC(C)C(=O)OC[C@H]1O[C@@H](n2ccc(NO)nc2=O)[C@H](O)[C@@H]1O,SARS-CoV-2,,,,relative to: CC50 over EC50,selectivity index,7 to 49
CCCCCCCC/C=C\CCCCCCCC(=O)O[C@H](COC(=O)CCCCCCCCCCCCCCC)COP(=O)(O)OC[C@H](N)C(=O)O,"Nucleoprotein (Severe acute respiratory syndrome coronavirus 2, UniProt P0DTC9)","membrane binding, surface plasmon resonance",SARS-CoV-2,,,Kd,400 ± 20 nM
CC1CC(c2cccc(C(=O)O)c2)=NN1c1ccc(C#N)c(Cl)c1 (stereo not drawn),SARS-CoV-2,viral replication,"Calu-3, B.1.617.2 Delta variant",72 h,,EC50,32700 nM
